Assay results gathered from unrelated publications.
Every numbered part comes from another study and shows a few of its results, in no order. Substitutions count along the parent as printed.

Block 1 — technique: universal PBM; form: double-stranded DNA, one strand shown; medium: in vitro; tested at: 600 nM; direction: higher = stronger binding
Target: Sal-like protein 4, full length isoform A (SALL4, Homo sapiens, UniProt Q9UJQ4, residues 1-1053)
UniProt Q9UJQ4, sequence (whole entry, looked up): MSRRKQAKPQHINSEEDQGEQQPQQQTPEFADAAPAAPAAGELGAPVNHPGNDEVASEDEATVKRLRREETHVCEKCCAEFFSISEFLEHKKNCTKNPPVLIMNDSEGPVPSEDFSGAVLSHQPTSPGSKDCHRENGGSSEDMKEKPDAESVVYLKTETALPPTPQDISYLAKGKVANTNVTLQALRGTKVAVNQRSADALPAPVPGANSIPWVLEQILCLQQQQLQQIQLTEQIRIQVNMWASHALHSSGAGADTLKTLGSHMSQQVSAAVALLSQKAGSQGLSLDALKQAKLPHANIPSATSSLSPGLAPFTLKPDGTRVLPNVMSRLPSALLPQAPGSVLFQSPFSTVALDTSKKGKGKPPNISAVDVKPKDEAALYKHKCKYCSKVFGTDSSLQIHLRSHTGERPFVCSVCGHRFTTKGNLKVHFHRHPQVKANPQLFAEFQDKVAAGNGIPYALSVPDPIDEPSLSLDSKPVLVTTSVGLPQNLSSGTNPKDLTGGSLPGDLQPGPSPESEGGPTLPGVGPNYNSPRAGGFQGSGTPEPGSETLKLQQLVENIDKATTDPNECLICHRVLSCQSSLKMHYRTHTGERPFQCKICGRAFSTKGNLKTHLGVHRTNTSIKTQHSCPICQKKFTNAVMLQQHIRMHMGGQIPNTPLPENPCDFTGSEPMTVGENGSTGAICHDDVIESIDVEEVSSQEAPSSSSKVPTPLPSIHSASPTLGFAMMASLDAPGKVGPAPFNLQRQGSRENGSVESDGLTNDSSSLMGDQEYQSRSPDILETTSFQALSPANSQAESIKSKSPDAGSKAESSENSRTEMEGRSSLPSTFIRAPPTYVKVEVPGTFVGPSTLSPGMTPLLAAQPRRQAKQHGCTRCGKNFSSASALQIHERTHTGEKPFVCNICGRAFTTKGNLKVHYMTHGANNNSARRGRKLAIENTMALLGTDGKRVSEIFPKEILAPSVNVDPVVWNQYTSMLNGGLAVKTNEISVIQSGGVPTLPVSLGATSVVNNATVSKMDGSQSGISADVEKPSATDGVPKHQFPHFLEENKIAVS
Setting: 8-mer, flanks averaged, mean of replicates
| Strand | E-score |
| --- | --- |
| CGAATTCC | -0.0536 |
| CGGATGCC | -0.145 |
| CAATGGGG | -0.191 |
| CGACCTAG | -0.00714 |
| ATCTACAT | 0.211 |
| CGGTACAA | 0.109 |
| CCTACACG | -0.197 |
| GGACTGCC | -0.311 |
| ACAGCGGC | -0.137 |
| GGGCACCA | -0.274 |
| CAGGGGGA | -0.265 |
| GCGAGGCC | -0.398 |
| AGGCCTGA | -0.152 |
| CCTCACCA | -0.155 |
| AATTCGAT | 0.206 |
| GGGCTTAC | -0.134 |
| CTACACCA | 0.151 |
| ATTACCAG | 0.0719 |
| CCGTGGTC | -0.333 |
| CCCCATAG | -0.131 |
| AGCCTGTC | -0.184 |
| CGATCACA | 0.12 |
| AGAGGCGC | -0.296 |
| GACTCACA | -0.0705 |

Block 2 — technique: RNA Bind-n-Seq; form: RNA; medium: in vitro; tested at: 365 nM; baseline: no-protein control; direction: higher = stronger binding
Target: RNA binding protein fox-1 homolog 2, RRM domain, GST-SBP tag (RBFOX2, Homo sapiens, UniProt O43251-10, residues 100-194)
Setting: natural RNA segment, single round, ends assumed
Constant ends, left off below: GGGAGUUCUACAGUCCGACGAUC … UGGAAUUCUCGGGUGCCAA
Residues (chain): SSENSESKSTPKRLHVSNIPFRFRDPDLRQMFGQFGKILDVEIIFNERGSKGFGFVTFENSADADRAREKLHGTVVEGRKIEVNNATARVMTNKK
| Strand | RBNS enrichment (R) |
| --- | --- |
| AACAGAAUUUGGUAGCACUUACCUCUACAGACACCUGCUAAUAAAUUAUUUUCUGUCAAAAGAAAAAACACAAGCAUGUGUGAGAGACAGUUUGGAAAAAUCAUGGUCAA | 0.937 |
| CUUCUGCUGUUCUUCACUUCUGGGAAAUUGAAGUGUCUUCUGUUCCCAAGGAAGCUCCUUCCUGUUUGUUUUGUUUUCUAAGAUGUUCAUUUUUAAAGCCUGGCUUCUUA | 2.01 |
| AUAUAGCAAGAACGAAAAGACUGUGCAAGGCCUAGAGCCAGCAAAGAUGCUGAUGUAGCCAGGCCAUGCCGGAAGGAGCAGGGUGAAGCUUCCCCUCUCCCUACAAAUGG | 0.331 |
| CUCCUACCUGUGAGGUCCCAUCGUGAGUCACUGGGAUUUGUGUUGCAUGGAAGGCAGUCUUUCCUGUUGUAAAUCUUCCUUUUUUAUGUACAAAUAUUUUGAAAAAUAUG | 1.01 |
| UUAGGGUUGUUCCUGUUCUUUUAGGUUGGGCGGUGGGUCUGUGUCCUGGUGUUGAGUUUCUGCAAAUUUCUGGGGGUGAUUUCUGUGACUCUGGGCCCACAGCGGGGAGG | 0.587 |
| CCUCCUUUCAAGCUAGCCAAGUUUUCUGCGAGCCUUCAGAGCUAGGAGGGCACCCUAGGCUCUGGGAUCCCGUGUCUUUCCAGACAAUGUUUUGUUUCCUUUCCUUUGUU | 0.467 |
| UUUCCCUUAGUUUUGUGAACUCUGCUAAUCACUGUGUCUCUAAGUUAGACUUAUUUUCUAGUGGCUUCAACACAUGUUCCAACUUGAAUUUUUUUCUUUUCUUCUUUAAG | 0.62 |
| GCGUGAGUCCGCGGCUGGCCCUUGGAGGUGACCAUCCAGGCAGGCCUGGCUCAGACUGGAAGGGCUGGGGACCGAGGGCUCCCCUGCCUCUGUUCUCCUUUCUGACCCAC | 0.395 |
| CUGGGAGGGUGGUCUUUGGGUGUUCUCAGGGGCCAAUGGUAAUUUUUGGUUGGGGAGCCAGCUUGGGGUGGGGAGUUUCACCUGGGCCUCCGCUCUCUAACUACAUAAAC | 0.507 |
| UCUGGCAGGUGACUUUUGUACGAAAUGAAAAAAAAAAAACCUGUAUUUUUUUUGUUGUUCUUUUGUGAUUAAGGAUAUACAUUUAGUAGUCUUUGUUAUUAAAGGAACCU | 0.676 |
| UGAAUCAUGUACACAGCAGGAGUGGUCACAGUAAAAACUGGUAGCAGGAAAAUUUGAAAGGGUUUGAAAUGCCCUGAAAUCAGGGCAAGUACUUAAUGGGGAAAAAAAAG | 0.928 |
| CCCUCAGGUCUUAACCCUUCCCAGACCUGCAGCGAUUCCUGUCGACUCCCUUACACAGUAUUGAUCUUCUGACUGUGGAAACAACCUUCCUCUCACUUUCACACCUUUAA | 1.21 |

Block 3 — technique: Sort-seq; measured: YFP reporter; medium: E. coli; setting: PhoQ-PhoP variant library; together with: 10 µM Mg2+; baseline: high Mg2+ state; direction: higher = stronger signaling
Molecule: PhoQ, residues 284 288 289 292 302 303 TAVSDG
| target | fold induction |
| --- | --- |
| PhoP, residues 12 14 15 18 19 NFFVT (Escherichia coli, UniProt P23836) | 9.12 |
| PhoP, residues 12 14 15 18 19 LHHYF (Escherichia coli, UniProt P23836) | 2.92 |
| PhoP, residues 12 14 15 18 19 TPWTL (Escherichia coli, UniProt P23836) | 2.79 |
| PhoP, residues 12 14 15 18 19 VGHWL (Escherichia coli, UniProt P23836) | 1.28 |

Block 4 — technique: DHFR PCA, deep sequencing; medium: yeast; together with: (+)-ABA 4.8 µM; baseline: wild-type fitted maximum; direction: higher = stronger binding
Target: ABI1, truncated, D143A, DHFR fusion (Arabidopsis thaliana)
Setting: methotrexate growth selection, single substitutions
Starting sequence: PYL1, truncated, DHFR fusion (Arabidopsis thaliana); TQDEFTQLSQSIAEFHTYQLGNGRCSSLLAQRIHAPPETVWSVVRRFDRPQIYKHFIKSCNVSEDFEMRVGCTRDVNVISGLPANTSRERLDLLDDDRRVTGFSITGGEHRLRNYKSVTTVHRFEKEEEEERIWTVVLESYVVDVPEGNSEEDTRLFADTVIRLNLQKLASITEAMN; partner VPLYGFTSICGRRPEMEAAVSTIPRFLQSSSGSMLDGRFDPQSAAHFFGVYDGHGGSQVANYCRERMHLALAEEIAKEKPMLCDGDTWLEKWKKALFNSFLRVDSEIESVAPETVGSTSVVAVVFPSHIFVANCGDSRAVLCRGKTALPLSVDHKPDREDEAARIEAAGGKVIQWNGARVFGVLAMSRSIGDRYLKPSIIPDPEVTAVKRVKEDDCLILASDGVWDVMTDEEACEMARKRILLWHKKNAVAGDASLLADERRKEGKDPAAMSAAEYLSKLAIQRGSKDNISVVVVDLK
| Change | relative binding score [%] |
| --- | --- |
| T101N | 4.45 |
| W41D | -15.4 |
| R45Q | -17.4 |
| L28P | 7.41 |
| N61C | 70.8 |
| T1F | 71.4 |
| H122E | 22.9 |
| S59Y | 32 |
| H122N | 17.8 |
| I105L | -11.2 |
| T6R | 79.8 |
| F66W | 57.2 |
| K116A | 39.8 |
| F15T | -4.55 |
| L29R | 17.1 |

Excerpt of the above (block 1):
| Strand | E-score |
| --- | --- |
| CGGATGCC | -0.145 |
| ATCTACAT | 0.211 |
| AGGCCTGA | -0.152 |
| CAATGGGG | -0.191 |
| CCTCACCA | -0.155 |
